{"data": "Assay results pooled from the literature", "note": "Each numbered part is a random draw from the data of one study; scales do not carry over between parts.", "sequence of UniProt P20794 (whole entry, looked up)": "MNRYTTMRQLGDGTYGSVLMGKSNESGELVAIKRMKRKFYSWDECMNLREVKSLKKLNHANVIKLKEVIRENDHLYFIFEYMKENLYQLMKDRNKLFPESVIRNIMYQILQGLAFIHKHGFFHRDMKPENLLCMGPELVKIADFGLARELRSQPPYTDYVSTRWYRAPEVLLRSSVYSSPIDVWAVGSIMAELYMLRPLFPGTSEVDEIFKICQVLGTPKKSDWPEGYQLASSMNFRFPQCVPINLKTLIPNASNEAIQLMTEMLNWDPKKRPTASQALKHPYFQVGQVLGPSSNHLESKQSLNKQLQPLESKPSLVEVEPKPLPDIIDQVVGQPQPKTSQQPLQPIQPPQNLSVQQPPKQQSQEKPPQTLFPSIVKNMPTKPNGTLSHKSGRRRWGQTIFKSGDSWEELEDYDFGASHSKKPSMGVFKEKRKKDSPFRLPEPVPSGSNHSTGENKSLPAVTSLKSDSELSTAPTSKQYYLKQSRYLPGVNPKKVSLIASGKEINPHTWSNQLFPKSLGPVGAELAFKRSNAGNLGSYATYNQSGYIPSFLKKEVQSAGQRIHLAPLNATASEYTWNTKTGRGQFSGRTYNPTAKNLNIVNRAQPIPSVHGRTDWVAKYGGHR", "sequence of UniProt P21127 (whole entry, looked up)": "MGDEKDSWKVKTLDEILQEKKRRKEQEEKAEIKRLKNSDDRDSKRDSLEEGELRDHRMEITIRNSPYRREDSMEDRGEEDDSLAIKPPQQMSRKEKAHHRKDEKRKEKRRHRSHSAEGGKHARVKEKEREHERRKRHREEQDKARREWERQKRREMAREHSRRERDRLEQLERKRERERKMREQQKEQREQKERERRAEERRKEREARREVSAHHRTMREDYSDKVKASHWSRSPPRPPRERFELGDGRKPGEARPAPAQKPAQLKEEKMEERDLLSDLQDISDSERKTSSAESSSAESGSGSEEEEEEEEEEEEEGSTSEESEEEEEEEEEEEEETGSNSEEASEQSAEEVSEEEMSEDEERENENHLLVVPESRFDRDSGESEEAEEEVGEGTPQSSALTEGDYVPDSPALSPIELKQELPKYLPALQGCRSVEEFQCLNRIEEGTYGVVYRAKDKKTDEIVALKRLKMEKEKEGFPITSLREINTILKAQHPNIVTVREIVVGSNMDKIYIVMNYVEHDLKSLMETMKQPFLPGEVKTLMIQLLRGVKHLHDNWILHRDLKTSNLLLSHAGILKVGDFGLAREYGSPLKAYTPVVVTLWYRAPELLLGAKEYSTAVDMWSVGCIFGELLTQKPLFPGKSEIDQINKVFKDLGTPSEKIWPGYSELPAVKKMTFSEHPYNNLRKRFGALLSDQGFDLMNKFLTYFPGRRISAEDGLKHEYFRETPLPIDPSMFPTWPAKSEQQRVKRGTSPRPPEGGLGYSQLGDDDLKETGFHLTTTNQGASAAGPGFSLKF", "sequence of UniProt Q9Y2H1 (whole entry, looked up)": "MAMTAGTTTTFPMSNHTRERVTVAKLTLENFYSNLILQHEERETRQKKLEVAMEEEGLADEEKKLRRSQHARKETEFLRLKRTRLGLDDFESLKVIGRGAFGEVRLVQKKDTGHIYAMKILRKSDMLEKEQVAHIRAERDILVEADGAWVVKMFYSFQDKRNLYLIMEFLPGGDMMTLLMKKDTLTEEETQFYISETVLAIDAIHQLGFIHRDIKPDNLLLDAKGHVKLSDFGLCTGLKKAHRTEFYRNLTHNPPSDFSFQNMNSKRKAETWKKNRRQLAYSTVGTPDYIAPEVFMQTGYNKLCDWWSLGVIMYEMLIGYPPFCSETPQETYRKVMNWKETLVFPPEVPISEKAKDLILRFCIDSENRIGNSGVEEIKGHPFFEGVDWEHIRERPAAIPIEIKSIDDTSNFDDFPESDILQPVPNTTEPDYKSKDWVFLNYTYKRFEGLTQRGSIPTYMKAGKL", "sequence of UniProt O94768 (whole entry, looked up)": "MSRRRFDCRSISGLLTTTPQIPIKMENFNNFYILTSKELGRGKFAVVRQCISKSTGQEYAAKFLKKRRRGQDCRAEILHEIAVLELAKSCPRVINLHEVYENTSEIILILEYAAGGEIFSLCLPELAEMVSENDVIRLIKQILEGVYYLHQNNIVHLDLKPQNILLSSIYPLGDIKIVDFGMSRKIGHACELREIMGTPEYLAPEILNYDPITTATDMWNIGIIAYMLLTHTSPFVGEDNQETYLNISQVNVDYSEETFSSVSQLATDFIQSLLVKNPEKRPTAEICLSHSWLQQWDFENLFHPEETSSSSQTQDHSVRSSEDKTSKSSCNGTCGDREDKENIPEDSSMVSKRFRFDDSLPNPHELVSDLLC", "sequence of UniProt P53667 (whole entry, looked up)": "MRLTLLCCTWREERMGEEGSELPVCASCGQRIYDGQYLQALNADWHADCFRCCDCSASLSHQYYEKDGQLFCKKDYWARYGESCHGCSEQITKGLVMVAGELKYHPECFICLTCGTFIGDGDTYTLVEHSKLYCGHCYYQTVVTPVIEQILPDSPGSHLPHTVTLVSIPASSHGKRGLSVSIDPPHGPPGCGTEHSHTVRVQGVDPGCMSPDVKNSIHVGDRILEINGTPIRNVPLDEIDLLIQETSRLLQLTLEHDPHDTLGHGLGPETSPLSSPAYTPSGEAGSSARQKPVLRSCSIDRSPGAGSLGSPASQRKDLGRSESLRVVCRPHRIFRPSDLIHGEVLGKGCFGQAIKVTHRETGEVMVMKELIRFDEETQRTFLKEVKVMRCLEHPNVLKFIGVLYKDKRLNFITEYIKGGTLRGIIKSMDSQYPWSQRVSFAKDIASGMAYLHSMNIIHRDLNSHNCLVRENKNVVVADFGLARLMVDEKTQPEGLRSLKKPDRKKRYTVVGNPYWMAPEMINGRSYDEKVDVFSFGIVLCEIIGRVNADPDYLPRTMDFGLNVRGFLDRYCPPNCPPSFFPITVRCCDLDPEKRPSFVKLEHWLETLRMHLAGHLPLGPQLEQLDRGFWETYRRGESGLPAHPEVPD", "sequence of UniProt Q92918 (whole entry, looked up)": "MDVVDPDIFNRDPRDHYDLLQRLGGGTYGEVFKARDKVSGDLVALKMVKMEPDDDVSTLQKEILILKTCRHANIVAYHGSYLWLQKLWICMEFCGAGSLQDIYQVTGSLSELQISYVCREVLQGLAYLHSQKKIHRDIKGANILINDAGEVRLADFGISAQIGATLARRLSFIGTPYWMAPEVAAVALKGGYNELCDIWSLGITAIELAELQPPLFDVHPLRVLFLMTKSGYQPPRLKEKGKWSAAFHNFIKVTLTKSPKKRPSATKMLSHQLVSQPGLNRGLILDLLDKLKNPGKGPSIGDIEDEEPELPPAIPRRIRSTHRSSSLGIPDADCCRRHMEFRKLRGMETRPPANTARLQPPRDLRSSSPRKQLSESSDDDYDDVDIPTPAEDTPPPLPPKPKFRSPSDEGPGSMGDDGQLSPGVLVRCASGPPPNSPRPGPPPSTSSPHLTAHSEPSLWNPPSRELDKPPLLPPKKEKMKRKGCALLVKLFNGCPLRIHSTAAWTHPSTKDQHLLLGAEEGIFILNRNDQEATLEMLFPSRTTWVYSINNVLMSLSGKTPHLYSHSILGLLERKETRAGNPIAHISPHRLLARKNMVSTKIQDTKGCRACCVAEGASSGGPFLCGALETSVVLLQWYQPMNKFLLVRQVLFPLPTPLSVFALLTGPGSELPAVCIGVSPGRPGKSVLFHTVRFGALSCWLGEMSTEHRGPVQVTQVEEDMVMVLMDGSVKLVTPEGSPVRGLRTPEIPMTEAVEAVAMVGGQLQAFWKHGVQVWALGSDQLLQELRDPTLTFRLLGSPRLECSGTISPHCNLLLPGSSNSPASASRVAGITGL", "sequence of UniProt Q9P286 (whole entry, looked up)": "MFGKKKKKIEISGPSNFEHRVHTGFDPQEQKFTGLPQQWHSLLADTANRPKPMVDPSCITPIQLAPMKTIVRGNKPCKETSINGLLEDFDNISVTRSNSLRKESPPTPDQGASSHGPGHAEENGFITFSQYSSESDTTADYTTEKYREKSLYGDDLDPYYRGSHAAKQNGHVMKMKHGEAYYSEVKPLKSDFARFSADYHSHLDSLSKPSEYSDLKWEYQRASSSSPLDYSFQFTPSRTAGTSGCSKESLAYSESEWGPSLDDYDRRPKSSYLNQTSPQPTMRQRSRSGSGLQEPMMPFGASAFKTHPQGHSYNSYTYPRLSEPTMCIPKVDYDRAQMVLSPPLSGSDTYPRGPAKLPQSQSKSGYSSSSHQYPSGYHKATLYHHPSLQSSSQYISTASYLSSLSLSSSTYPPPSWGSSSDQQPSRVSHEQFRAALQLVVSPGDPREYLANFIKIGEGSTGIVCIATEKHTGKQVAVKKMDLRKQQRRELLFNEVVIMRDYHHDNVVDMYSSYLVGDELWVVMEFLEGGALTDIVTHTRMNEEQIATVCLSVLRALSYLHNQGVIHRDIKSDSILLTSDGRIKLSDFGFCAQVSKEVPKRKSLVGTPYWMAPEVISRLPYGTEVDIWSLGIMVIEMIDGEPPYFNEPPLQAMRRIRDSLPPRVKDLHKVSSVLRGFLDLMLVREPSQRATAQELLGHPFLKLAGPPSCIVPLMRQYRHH", "sequence of UniProt Q00535 (whole entry, looked up)": "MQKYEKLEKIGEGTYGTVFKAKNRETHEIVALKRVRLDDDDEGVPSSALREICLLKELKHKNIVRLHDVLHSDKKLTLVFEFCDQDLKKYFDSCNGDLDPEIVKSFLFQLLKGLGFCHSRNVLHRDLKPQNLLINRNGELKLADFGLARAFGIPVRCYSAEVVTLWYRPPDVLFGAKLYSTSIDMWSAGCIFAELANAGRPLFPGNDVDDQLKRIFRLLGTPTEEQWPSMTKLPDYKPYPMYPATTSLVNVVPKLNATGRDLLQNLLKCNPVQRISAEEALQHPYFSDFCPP"}
{"data": "Sample 1", "SMILES": "CCc1ccccc1C(=O)Nc1n[nH]c2c(C)c(F)c(C3C(C#N)=C(C)N(C)C(C)=C3C#N)cc12", "method": "competition with immobilised ligand", "concentration": "1 µM"}
{"target": "Cyclin-dependent kinase-like 3 (CDKL3, Homo sapiens, UniProt Q8IVW4)", "test": "binding", "remaining binding [%]": 87}
{"target": "Mitogen-activated protein kinase kinase kinase 7 (MAP3K7, Homo sapiens, UniProt O43318)", "test": "cell-free assay", "remaining binding [%]": 92}
{"target": "Proto-oncogene tyrosine-protein kinase receptor Ret (RET, Homo sapiens, UniProt P07949, V804M)", "test": "cell-free assay", "remaining binding [%]": 11}
{"target": "Serine/threonine-protein kinase B-raf (BRAF, Homo sapiens, UniProt P15056, V600E)", "test": "cell-free assay", "remaining binding [%]": 100}
{"target": "Serine/threonine-protein kinase 38-like (STK38L, Homo sapiens, UniProt Q9Y2H1)", "test": "binding", "remaining binding [%]": 82}
{"target": "LIM domain kinase 1 (LIMK1, Homo sapiens, UniProt P53667)", "test": "cell-free assay", "remaining binding [%]": 100}
{"target": "Serine/threonine-protein kinase 17B (STK17B, Homo sapiens, UniProt O94768)", "test": "cell-free assay", "remaining binding [%]": 100}
{"target": "Serine/threonine-protein kinase MAK (MAK, Homo sapiens, UniProt P20794)", "test": "binding", "remaining binding [%]": 100}
{"target": "Cyclin-dependent kinase 11B (CDK11B, Homo sapiens, UniProt P21127)", "test": "cell-free assay", "remaining binding [%]": 100}
{"target": "Mitogen-activated protein kinase kinase kinase kinase 1 (MAP4K1, Homo sapiens, UniProt Q92918)", "test": "cell-free assay", "remaining binding [%]": 73}
{"target": "Mitogen-activated protein kinase 6 (MAPK6, Homo sapiens, UniProt Q16659)", "test": "cell-free assay", "remaining binding [%]": 100}
{"target": "Cyclin-dependent kinase 5 (CDK5, Homo sapiens, UniProt Q00535)", "test": "cell-free assay", "remaining binding [%]": 89}
{"target": "Serine/threonine-protein kinase MRCK alpha (CDC42BPA, Homo sapiens, UniProt Q5VT25)", "test": "cell-free assay", "remaining binding [%]": 100}
{"target": "Tyrosine-protein kinase ABL1, non-phosphorylated (ABL1, Homo sapiens, UniProt P00519, T315I)", "test": "cell-free assay", "remaining binding [%]": 100}
{"target": "Serine/threonine-protein kinase PAK 5 (PAK5, Homo sapiens, UniProt Q9P286)", "test": "cell-free assay", "remaining binding [%]": 100}
{"target": "Receptor-type tyrosine-protein kinase FLT3 (FLT3, Homo sapiens, UniProt P36888, R834Q)", "test": "cell-free assay", "remaining binding [%]": 89}
{"data": "Sample 2", "target": "Discoidin domain-containing receptor 2 (DDR2, Homo sapiens, UniProt Q16832)", "effect on": "enzyme activity", "action": "inhibitor", "concentration": "0.5 µM", "relative to": "control", "Target sequence (Q16832 1-855)": "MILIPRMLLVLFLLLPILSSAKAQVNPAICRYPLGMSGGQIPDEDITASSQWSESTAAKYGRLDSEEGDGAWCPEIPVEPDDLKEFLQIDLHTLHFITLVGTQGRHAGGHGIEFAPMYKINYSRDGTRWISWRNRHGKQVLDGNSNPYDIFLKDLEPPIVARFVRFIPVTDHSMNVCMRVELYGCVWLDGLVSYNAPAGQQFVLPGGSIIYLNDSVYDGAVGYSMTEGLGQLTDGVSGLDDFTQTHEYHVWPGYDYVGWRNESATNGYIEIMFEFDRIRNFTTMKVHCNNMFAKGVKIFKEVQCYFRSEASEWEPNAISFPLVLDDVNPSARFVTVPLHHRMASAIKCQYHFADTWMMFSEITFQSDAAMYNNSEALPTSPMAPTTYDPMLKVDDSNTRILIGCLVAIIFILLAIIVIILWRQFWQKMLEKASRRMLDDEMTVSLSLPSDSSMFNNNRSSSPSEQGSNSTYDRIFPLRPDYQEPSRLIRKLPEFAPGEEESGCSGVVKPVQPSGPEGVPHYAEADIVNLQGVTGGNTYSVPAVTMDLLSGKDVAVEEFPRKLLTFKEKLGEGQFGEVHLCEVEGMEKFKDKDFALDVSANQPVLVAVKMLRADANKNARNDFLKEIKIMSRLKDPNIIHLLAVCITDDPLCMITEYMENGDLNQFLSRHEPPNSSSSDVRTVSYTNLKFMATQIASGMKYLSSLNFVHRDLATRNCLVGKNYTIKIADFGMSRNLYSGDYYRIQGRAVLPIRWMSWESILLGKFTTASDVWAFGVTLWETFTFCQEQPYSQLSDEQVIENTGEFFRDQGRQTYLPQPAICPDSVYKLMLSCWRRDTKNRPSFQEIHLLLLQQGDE"}
{"SMILES": "O=C(Nc1cccc(Nc2nccc(Nc3cccc(C(F)(F)F)c3)n2)c1)C1CC1", "remaining activity [%]": 81.7}
{"SMILES": "COc1cc2ncnc(Nc3ccc(O)c(Br)c3)c2cc1OC", "remaining activity [%]": 119}
{"SMILES": "N#C/C(=C\\c1ccc(O)c(O)c1)C(=O)NCc1ccccc1", "remaining activity [%]": 97.2}
{"SMILES": "Cc1cn(-c2cc(NC(=O)c3ccc(C)c(Nc4nccc(-c5cccnc5)n4)c3)cc(C(F)(F)F)c2)cn1", "remaining activity [%]": 1.77}
{"SMILES": "Cc1cc2ncc(-c3ccccc3)nc2cc1C", "remaining activity [%]": 95.7}
{"SMILES": "Ic1cccc(CSc2nnc(-c3ccncc3)o2)c1", "remaining activity [%]": 102}
{"SMILES": "CN([C@@H](Cc1ccc(OS(=O)(=O)c2cccc3cnccc23)cc1)C(=O)N1CCN(c2ccccc2)CC1)S(=O)(=O)c1cccc2cnccc12", "remaining activity [%]": 96.9}
{"SMILES": "Cn1nc2c3c(cccc31)C(=O)c1ccccc1-2", "remaining activity [%]": 95.1}
{"SMILES": "CCN(CC)C(=O)c1ccc(Nc2nc(OCC3CCCCC3)c3[nH]cnc3n2)cc1", "remaining activity [%]": 109}
{"SMILES": "Nc1cccc(-c2cc3c(Oc4cccc(O)c4)ncnc3[nH]2)c1", "remaining activity [%]": 29.3}
{"SMILES": "COc1cc2c(cc1OC)-c1[nH]nc(Nc3cccc(F)c3)c1C2", "remaining activity [%]": 110}
{"SMILES": "N#Cc1c(NC(=O)c2cccc3ccccc23)sc2c1CCCC2", "remaining activity [%]": 95.8}
{"data": "Sample 3", "organism": "Plasmodium berghei", "action": "inhibitor", "cell line": "Huh-7", "strain": "liver stage", "concentration": "10 µM", "time": "24 h", "relative to": "untreated control"}
{"Compound": "C#C[C@]1(OC(C)=O)CC[C@H]2[C@@H]3CCC4=C[C@@H](OC(C)=O)CC[C@@H]4[C@H]3CC[C@@]21C", "infection rate [%]": 89.7}
{"Compound": "NCCCC[C@H](N[C@@H](CCc1ccccc1)C(=O)O)C(=O)N1CCC[C@H]1C(=O)O", "infection rate [%]": 107}
{"Compound": "CN(Cc1cnc2nc(N)nc(N)c2n1)c1ccc(C(=O)NC(CCC(=O)O)C(=O)O)cc1 (racemic)", "infection rate [%]": 30.3}
{"Compound": "CC(=O)OCC(=O)[C@@]1(O)CC[C@H]2[C@@H]3CCC4=CC(=O)CC[C@]4(C)[C@H]3[C@@H](O)C[C@@]21C", "infection rate [%]": 96}
{"Compound": "C[C@H]1COc2c(N3CCN(C)CC3)c(F)cc3c(=O)c(C(=O)O)cn1c23", "infection rate [%]": 55.9}
{"Compound": "O=C1O[C@H](CO)[C@@H](O)[C@H](O)[C@H]1O", "infection rate [%]": 99}
{"Compound": "CC(C)NCC(O)c1ccc(O)c(O)c1 (stereo not drawn)", "infection rate [%]": 96.6}
{"Compound": "S=c1[nH]cnc2nc[nH]c12", "infection rate [%]": 63.2}
{"data": "Sample 4", "cell line": "HaCaT", "concentration": "100 µM", "time": "18 h"}
{"SMILES": "Nc1nc(CC(=O)Nc2ccc(CCNC[C@H](O)c3ccccc3)cc2)cs1", "viability [%]": 100}
{"SMILES": "CC(C)OC(=O)C(C(=O)OC(C)C)=C1SC=CS1", "viability [%]": 32.5}
{"SMILES": "CC(C)(F)C[C@H](N[C@@H](c1ccc(-c2ccc(S(C)(=O)=O)cc2)cc1)C(F)(F)F)C(=O)NC1(C#N)CC1", "viability [%]": 79.6}
{"SMILES": "CN1CCC(=C2c3ccccc3CC(=O)c3sccc32)CC1", "viability [%]": 108}
{"SMILES": "COc1ccc([C@@H]2Sc3ccccc3N(CCN(C)C)C(=O)[C@@H]2OC(C)=O)cc1", "viability [%]": 84.2}
{"SMILES": "Cc1cccc(C)c1NC(=O)c1ccccc1C(=O)O", "viability [%]": 99.3}
{"note": "For quick reference, copied from above (sample 2):"}
{"SMILES": "Cn1nc2c3c(cccc31)C(=O)c1ccccc1-2", "remaining activity [%]": 95.1}
{"SMILES": "Cc1cc2ncc(-c3ccccc3)nc2cc1C", "remaining activity [%]": 95.7}
{"SMILES": "COc1cc2ncnc(Nc3ccc(O)c(Br)c3)c2cc1OC", "remaining activity [%]": 119}
{"SMILES": "CN([C@@H](Cc1ccc(OS(=O)(=O)c2cccc3cnccc23)cc1)C(=O)N1CCN(c2ccccc2)CC1)S(=O)(=O)c1cccc2cnccc12", "remaining activity [%]": 96.9}
